Experimental data pooled from the literature.
Protocols differ between the studies behind these lines. ± gives the spread as reported.
CNR1: Cannabinoid receptor 1 (CNR1, Homo sapiens, UniProt P21554)
UniProt P21554, sequence (whole entry, unmodified, looked up): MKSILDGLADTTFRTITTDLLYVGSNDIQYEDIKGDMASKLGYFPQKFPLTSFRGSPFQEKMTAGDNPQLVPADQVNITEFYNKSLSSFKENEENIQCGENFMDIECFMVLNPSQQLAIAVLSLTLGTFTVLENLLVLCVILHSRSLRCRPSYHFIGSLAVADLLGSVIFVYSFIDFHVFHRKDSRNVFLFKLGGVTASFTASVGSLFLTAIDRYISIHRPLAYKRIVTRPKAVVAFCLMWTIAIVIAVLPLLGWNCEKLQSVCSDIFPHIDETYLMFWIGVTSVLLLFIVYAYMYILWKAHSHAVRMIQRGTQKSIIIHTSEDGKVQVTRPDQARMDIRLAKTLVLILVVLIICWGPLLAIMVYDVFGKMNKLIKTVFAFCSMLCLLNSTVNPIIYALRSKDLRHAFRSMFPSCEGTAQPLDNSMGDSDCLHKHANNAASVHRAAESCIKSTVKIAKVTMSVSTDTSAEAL
tmk: Thymidylate kinase (tmk, Mycobacterium tuberculosis, UniProt P9WKE1)
UniProt P9WKE1, sequence (whole entry, looked up): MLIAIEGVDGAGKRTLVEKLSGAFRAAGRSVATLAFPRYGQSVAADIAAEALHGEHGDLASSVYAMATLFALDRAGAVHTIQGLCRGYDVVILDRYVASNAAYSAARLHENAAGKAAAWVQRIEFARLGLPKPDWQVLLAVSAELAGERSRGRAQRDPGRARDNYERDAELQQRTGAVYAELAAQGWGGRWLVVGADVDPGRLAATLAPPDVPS
UniProt P00519, sequence (whole entry, looked up): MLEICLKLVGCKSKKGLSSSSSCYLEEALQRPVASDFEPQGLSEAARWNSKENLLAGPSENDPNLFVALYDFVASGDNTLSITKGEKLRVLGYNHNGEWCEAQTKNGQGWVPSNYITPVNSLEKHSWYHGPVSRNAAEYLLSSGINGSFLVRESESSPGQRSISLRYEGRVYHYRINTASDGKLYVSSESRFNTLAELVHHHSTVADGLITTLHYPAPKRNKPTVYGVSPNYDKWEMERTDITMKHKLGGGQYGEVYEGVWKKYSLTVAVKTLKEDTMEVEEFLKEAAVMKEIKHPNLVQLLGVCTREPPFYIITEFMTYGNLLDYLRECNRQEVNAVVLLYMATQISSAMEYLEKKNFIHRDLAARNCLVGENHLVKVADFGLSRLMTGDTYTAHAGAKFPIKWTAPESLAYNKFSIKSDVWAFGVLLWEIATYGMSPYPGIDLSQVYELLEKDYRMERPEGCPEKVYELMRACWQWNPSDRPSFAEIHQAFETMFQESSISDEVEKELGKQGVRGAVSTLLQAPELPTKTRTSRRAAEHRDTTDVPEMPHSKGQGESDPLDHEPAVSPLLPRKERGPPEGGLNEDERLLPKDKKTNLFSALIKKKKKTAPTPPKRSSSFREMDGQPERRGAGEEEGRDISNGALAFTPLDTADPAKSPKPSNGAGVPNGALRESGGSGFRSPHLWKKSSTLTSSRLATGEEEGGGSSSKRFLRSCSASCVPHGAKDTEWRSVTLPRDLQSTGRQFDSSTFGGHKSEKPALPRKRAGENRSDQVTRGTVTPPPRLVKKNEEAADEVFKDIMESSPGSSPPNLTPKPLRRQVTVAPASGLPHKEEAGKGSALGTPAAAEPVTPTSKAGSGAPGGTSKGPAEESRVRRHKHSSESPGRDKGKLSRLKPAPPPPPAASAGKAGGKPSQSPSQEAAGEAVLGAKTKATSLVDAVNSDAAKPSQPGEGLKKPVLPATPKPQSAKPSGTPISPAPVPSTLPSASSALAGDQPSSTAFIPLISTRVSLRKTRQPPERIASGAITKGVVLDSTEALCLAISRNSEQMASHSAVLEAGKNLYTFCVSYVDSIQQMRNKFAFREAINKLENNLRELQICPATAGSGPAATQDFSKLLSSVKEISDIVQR
UniProt P34972, sequence (whole entry, looked up): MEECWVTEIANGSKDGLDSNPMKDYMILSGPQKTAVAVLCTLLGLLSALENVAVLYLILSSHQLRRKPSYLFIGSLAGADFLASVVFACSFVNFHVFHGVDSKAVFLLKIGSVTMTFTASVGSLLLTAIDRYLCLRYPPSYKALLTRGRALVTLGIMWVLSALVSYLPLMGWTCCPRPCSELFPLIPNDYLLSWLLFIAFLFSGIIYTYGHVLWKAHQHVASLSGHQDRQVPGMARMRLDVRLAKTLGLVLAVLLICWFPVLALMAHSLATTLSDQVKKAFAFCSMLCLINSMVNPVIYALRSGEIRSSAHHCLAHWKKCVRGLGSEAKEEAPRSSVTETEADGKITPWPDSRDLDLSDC
UniProt P25021, sequence (whole entry, looked up): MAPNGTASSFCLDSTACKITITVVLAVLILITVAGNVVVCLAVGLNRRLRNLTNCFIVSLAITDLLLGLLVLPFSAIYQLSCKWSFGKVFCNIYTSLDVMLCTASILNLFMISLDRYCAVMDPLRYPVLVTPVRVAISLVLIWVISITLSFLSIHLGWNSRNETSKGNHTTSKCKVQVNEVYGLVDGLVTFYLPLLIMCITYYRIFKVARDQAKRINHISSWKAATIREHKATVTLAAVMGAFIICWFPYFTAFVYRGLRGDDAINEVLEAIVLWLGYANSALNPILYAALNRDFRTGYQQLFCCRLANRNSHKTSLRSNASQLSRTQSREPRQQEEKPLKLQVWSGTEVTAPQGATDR

| Compound | target or system | assay | system | conditions | scale | measurement | value |
| --- | --- | --- | --- | --- | --- | --- | --- |
| Cc1sc2c(c1C)C(c1ccc(Cl)cc1)=NC(CC(=O)OC(C)(C)C)c1nnc(C)n1-2 (centres unmarked) | HRH2 (Homo sapiens, UniProt P25021) | ligand displacement, radioligand |  | 1 µM |  | remaining binding | 127% |
| O=C1NC2(CC2)COc2ncc(F)cc2[C@H]2COCCN2c2ccn3ncc1c3n2 |  |  | Sprague-Dawley rat, male, blood | oral, 2.5 mg/kg/day, 4 weeks, end of treatment, subacute toxicity |  | mean corpuscular haemoglobin | 20.2 ± 1.1 pg |
| Nc1ccc(/C=C/C(=O)N2CCc3c(oc4c(-c5ccc(F)cc5)cc(-c5ccc(C(=O)N6CCC(F)(F)CC6)cn5)cc34)C2)cn1 | Tyrosine-protein kinase ABL1, non-phosphorylated (ABL1, Homo sapiens, UniProt P00519) | binding, competition with immobilised ligand |  | 1 µM |  | remaining binding | 91% |
| CCCCCn1cc(C(=O)c2cccc3ccccc23)c2ccccc21 | CNR1 | agonist, BRET |  |  | baseline: Gαi1 over β-arrestin 2, reference agonist | bias factor (ΔΔlog(Emax/EC50)) | 0.32 |
| O=C(NC1CCN(c2ncnc3[nH]cnc23)CC1)c1cccc(NS(=O)(=O)c2ccc(C(F)(F)F)cc2)c1 | Replicase polyprotein 1ab, nsp14 (rep, Human coronavirus 229E, UniProt P0C6X1) | enzyme activity |  | 12.5 µM |  | inhibition | 52.1% |
| Cc1cn(C2CC(O)C(COP(=O)(O)O)O2)c(=O)[nH]c1=O (centres unmarked) | tmk | enzyme activity, inhibitor, absorbance |  | 0.1 µg/mL |  | inhibition | 62.5% |
| Cc1ccc2c(C(C[N+](=O)[O-])c3cccs3)c(-c3ccccc3)[nH]c2c1 (centres unmarked) | CNR1 (Homo sapiens, UniProt P21554, V171A) | β-arrestin recruitment, agonist, luciferase |  |  |  | Emax | 63.7% |
| CCCCCn1cc(C(=O)c2ccc3c(c2)CC(C)(C)C3)c2ccccc21 | CNR2 (Homo sapiens, UniProt P34972) | cAMP inhibition, agonist, CAMYEL BRET biosensor |  | together with: forskolin 10 µM | baseline: reference agonist at wild type | Emax | 48.1 ± 4.3% |
| COc1ccccc1C(C[N+](=O)[O-])c1c(-c2ccccc2)[nH]c2ccccc12 (centres unmarked) | CNR1 (Homo sapiens, UniProt P21554, I245M) | Gαi1-γ2 dissociation, BRET |  |  |  | Emax | 95.9 ± 5.08% |
| CCCCCn1cc(C(=O)c2ccc3ccccc3c2)c2ccccc21 | CNR1 | Gαi1 activation, agonist, BRET |  |  | baseline: reference agonist | Emax | 103 ± 9.9% |
| CCOC(=O)C1=C(C)NC(=NN=C2C(=O)Nc3ccccc32)NC1c1ccc(F)cc1 (centres unmarked) | tmk | enzyme activity, inhibitor, absorbance |  | 10 µg/mL |  | inhibition | 81.2% |
